# Assay results from different studies.
# Parts stem from different laboratories: compare values within a part only.

# Study 1 — method: protein binding microarray; form: double-stranded DNA, one strand shown; matrix: in vitro; concentration: not given; baseline: not given; reading: higher = stronger binding
# Target: Histone acetyltransferase KAT6A, winged helix 1, GST fusion (KAT6A, Homo sapiens, UniProt Q92794, residues 1-85)
# Setting: 8-mer, flanks averaged, mean of 2 arrays, mostly near background
# Residues (chain): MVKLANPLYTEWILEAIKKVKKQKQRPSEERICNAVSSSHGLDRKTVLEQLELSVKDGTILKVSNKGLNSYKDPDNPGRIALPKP
Oligonucleotide,E-score
AGAGCCGA,0.202
ACCATCGA,-0.263
CACAGCCA,-0.0933
GTTTCTAA,0.0763
AGAGAACT,-0.162
ACAAGATA,-0.164
CGCAACTA,0.076
GAGAGCGC,0.286
GCGACATA,0.106

# Study 2 — method: protein-binding microarray; form: double-stranded DNA, one strand shown; matrix: in vitro; concentration: 0.8 µM; setting: whole 60-bp probe, no competitor; reading: higher = stronger binding
# Target: Centromere-binding protein 1, full length, N-terminal tag (CBF1, Saccharomyces cerevisiae, UniProt P17106, residues 1-351)
# Sequence of UniProt P17106 (whole entry, looked up): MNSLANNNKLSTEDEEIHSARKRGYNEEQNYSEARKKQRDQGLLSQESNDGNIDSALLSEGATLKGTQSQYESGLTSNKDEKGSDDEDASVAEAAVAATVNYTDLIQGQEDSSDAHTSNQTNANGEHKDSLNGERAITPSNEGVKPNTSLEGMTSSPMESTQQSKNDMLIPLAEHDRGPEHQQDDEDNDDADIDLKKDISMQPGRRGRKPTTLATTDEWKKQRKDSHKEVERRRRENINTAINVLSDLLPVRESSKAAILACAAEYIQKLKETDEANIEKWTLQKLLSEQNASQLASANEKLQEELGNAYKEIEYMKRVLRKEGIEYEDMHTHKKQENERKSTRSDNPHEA
Oligonucleotide,fluorescence intensity [a.u.]
TGTACGAAGCTATCACACGTGATTATAGTAGTTAGGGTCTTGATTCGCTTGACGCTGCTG,6520
TGTACGAAGCTATGTGGGGTGAATATAGTAGTTAGGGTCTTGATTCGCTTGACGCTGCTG,523
CTATTTCGAACCCGTCAGGTGCAGGCTTGGATCTTCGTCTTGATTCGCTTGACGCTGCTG,809
CTAACTAGGTATTTACACGTGAAAGTATTGAATTTCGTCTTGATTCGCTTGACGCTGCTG,2230
CTAGTTGACTTACCACATGTGCAGCCGCCTTTTTTCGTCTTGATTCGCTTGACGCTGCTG,706

# Study 3 — method: protein-binding microarray; form: double-stranded DNA, one strand shown; matrix: in vitro; concentration: 2200 nM top; setting: 60-bp whole probe; added: salmon DNA 0.4 mg/ml; baseline: random background probes; reading: higher = stronger binding; constant ends, left off below: GCCTAGCAC … GTCTTGATTCGCTTGACGCTGCTG
# Target: Interferon regulatory factor 7, full length, phosphomimetic (IRF7, Homo sapiens, UniProt Q92985, residues 1-503, S471D/S472D/S475D/S476D/S477D/S483D/S484D/S487D)
# Sequence of UniProt Q92985 (whole entry, unmodified, looked up): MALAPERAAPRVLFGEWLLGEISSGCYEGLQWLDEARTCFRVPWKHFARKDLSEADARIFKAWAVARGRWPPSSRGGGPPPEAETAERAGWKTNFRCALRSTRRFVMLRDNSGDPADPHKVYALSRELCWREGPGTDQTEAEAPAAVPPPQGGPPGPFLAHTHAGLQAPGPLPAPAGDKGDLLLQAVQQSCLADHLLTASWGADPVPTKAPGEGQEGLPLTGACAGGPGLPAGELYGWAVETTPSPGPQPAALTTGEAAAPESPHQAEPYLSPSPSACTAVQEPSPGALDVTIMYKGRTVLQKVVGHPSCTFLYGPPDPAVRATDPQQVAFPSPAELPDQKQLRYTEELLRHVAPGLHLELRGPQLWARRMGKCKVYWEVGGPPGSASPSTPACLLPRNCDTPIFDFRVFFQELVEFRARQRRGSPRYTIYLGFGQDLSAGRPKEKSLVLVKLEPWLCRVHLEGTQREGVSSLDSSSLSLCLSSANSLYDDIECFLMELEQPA
Oligonucleotide,fitted relative affinity
GACGATTTCAGTTTCGCGACGTGCTAG,4.18 z-score
GACGATTTCCGGTATCGAGACGTGCTA,1.91 z-score
GACGGTCTCCTTTTCCTGATGTGCTAG,1.55 z-score
GAGAGTAGCTTTCTGAGGGCGTGCTAG,-0.31 z-score
GACGATATTAGTTTCGAGACGTGCTAG,3.95 z-score
GACGGACTGGACTATCTGGACGTGCTA,-0.532 z-score
AACGGTTTCGGGTATCGGGACGTGCTA,6.47 z-score

# Other studies, line by line
Substance,target,assay,test system,conditions,scale,measurement,value
"PhoQ, residues 284 288 289 292 302 303 SSTLLI","PhoP, residues 12 14 15 18 19 LYFRQ (Escherichia coli, UniProt P23836)","Sort-seq, measured: YFP reporter",E. coli,"PhoQ-PhoP variant library, added: 10 µM Mg2+","baseline: high Mg2+ state, higher = stronger signaling",fold induction,7.07

# For quick reference, copied from above (study 1):
Oligonucleotide,E-score
AGAGCCGA,0.202
ACCATCGA,-0.263
CACAGCCA,-0.0933
